Results of several laboratories.
Every numbered part comes from another study and shows a few of its results, in no order.
UniProt Q8N6M0, sequence (whole entry, looked up): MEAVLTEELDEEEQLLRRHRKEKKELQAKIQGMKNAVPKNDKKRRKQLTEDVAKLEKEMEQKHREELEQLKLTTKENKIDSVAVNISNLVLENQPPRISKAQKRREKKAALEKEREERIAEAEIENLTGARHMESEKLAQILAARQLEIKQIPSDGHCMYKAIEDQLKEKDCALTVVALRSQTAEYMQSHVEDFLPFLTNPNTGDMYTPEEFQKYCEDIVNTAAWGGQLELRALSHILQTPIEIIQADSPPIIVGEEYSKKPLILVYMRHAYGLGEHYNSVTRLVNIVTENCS
UniProt Q93009, sequence (whole entry, looked up): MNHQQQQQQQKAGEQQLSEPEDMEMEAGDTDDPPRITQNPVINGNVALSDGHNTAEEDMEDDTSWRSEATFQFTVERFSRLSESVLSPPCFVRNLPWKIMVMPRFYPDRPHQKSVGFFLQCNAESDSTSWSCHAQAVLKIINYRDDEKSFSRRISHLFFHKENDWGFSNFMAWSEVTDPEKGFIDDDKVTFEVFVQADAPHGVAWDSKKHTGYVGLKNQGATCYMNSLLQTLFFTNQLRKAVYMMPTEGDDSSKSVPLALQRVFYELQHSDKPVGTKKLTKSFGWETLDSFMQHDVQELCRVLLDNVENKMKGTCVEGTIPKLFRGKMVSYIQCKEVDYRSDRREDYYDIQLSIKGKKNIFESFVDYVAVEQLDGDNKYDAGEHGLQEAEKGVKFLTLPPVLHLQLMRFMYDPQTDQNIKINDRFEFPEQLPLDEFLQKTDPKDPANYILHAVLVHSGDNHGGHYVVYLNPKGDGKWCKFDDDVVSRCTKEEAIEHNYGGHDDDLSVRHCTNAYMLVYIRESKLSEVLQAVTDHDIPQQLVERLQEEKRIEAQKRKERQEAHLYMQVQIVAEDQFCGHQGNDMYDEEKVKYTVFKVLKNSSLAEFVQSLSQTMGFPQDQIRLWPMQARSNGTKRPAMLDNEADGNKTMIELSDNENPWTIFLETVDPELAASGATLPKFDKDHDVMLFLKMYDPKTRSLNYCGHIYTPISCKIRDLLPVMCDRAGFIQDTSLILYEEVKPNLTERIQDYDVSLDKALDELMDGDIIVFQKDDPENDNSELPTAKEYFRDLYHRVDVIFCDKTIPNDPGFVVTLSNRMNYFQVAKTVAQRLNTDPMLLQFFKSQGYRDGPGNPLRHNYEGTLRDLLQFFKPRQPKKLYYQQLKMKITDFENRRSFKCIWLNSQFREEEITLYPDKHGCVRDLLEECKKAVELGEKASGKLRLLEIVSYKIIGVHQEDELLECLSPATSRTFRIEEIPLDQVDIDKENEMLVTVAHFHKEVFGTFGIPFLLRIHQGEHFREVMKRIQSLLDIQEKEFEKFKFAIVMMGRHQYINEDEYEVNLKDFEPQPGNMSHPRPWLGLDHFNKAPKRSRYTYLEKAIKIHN
UniProt P21580, sequence (whole entry, looked up): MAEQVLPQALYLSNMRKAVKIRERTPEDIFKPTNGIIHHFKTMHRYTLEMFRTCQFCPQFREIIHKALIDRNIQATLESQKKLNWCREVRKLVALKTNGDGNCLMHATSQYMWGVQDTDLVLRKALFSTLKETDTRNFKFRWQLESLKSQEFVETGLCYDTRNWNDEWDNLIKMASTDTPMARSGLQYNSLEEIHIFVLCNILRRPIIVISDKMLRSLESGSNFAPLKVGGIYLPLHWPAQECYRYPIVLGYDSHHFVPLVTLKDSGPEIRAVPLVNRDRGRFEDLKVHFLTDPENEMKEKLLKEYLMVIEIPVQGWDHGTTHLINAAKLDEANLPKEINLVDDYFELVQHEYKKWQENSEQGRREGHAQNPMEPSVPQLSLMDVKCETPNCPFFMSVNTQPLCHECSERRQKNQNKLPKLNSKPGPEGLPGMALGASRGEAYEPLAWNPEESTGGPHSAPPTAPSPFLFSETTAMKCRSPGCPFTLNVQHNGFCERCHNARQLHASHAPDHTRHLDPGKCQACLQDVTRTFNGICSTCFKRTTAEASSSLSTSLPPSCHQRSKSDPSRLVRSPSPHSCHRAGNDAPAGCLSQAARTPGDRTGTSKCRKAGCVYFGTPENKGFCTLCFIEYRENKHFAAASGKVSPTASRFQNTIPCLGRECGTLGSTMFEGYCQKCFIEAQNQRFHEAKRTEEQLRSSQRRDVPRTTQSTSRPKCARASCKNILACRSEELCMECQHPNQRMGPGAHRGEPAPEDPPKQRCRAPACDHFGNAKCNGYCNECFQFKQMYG
UniProt P15374, sequence (whole entry, looked up): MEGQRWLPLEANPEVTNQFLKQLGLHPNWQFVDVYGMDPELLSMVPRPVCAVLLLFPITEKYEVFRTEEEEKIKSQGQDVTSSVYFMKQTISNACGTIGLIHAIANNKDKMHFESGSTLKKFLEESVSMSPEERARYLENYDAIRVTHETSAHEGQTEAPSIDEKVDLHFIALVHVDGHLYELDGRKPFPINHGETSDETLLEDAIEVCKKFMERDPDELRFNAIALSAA
UniProt P09936, sequence (whole entry, looked up): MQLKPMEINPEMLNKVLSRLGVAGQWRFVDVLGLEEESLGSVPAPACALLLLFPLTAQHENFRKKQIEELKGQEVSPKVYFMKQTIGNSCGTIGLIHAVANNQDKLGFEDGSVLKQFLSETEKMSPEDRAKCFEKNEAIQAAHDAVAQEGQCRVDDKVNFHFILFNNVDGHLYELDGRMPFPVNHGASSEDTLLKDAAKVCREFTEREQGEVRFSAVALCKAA

Set 1 — Substance: ubiquitin aldehyde; read-out: enzyme activity; quantity: inhibition
ATXN3: Ataxin-3 (ATXN3, Homo sapiens, UniProt P54252)
UniProt P54252, sequence (whole entry, looked up): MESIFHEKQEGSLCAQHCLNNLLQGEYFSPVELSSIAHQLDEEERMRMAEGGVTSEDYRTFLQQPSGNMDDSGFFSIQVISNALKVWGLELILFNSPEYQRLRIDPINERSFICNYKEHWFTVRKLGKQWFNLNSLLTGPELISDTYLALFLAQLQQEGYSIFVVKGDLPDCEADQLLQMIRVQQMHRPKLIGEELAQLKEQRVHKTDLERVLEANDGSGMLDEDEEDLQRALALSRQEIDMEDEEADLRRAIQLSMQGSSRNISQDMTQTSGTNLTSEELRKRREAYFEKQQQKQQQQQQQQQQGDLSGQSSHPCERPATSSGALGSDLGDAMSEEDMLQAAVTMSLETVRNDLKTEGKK
USP7 (Homo sapiens, UniProt Q93009); 0.1 µM: 97%
ATXN3; 1 µM: 67%
OTUD6B (Homo sapiens, UniProt Q8N6M0); 0.1 µM: 24%
TNFAIP3 (Homo sapiens, UniProt P21580); 0.1 µM: 96%
ATXN3; inhibitor; 10 µM: 96%
UCHL3 (Homo sapiens, UniProt P15374); 0.01 µM: 89%
UCHL1 (Homo sapiens, UniProt P09936); 0.01 µM: 20%
USP10 (Homo sapiens, UniProt Q14694); 0.01 µM: 5%

Set 2 — read-out: peptide-MHC binding; form: peptide; tested at: concentration not given; quantity: binding
Target: HLA class I histocompatibility antigen, A alpha chain, allele A*26:03 (Homo sapiens, UniProt P04439)
ESIDDAAGE: inactive
ETFRLLRSF: inactive
EEDAAVDDL: inactive
TIIDRIGPY: active
LFNTVAVLY: inactive
NQECWDSVF: inactive
PTIPEQKCM: inactive
DPKKTGGPI: inactive

Set 3 — target: UBE2D4 UBC core domain (UniProt Q9Y2X8); technique: yeast two-hybrid; medium: yeast; notes: mostly zero background; reference: not given; direction: higher = stronger interaction; quantity: lacZ reporter activity
B1: TRIM72 RING domain (UniProt Q6ZMU5); chain APGLLHQELSCPLCLQLFDAPVTAECGHSFCRACLGRVAGEPAADGTVLCPCCQAPTRPQALST
B2: IRF2BPL RING domain (UniProt Q9H1B7); chain SPMANSGPLCCTICHERLEDTHFVQCPSVPSHKFCFPCSRESIKAQGATGEVYCPSGEKCPLVGSNVP
B3: PHF21A RING domain (UniProt Q96BD5); chain SPTSTDGDIHEDFCSVCRKSGQLLMCDTCSRVYHLDCLDPPLKTIPKGMWICPRCQDQMLKKEEAIPW
B4: TRIM8 RING domain (UniProt Q9BZR9); chain WKNCFEEELICPICLHVFVEPVQLPCKHNFCRGCIGEAWAKDSGLVRCPECNQAYNQKPGLE
B5: TRIM69 RING domain (UniProt Q86WT6); chain VIQDITMELHCPLCNDWFRDPLMLSCGHNFCEACIQDFWRLQAKETFCPECKMLCQYNNCTF
B6: MID1 RING domain (UniProt O15344); chain METLESELTCPICLELFEDPLLLPCAHSLCFNCAHRILVSHCATNESVESITAFQCPTCRHVITLSQRGL
Target sequence (chain): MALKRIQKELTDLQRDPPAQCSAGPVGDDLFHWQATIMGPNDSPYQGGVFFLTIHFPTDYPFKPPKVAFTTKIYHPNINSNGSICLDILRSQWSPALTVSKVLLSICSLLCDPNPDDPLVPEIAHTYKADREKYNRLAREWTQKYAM
B1 (TRIM72 RING domain): 0
B2 (IRF2BPL RING domain): 0
VTLSLTLPITCHICLGKVRQPVICINNHVFCSICIDLWLKNNSQCPACRVPITPENPCK (OBI1 RING domain (UniProt Q5W0B1)): 0
B3 (PHF21A RING domain): 0
YWAMDSTFELCKICAESNKDVKIEPCGHLLCSCCLAAWQHSDSQTCPFCRCEIKGWEAVS (CBLC RING domain (UniProt Q9ULV8)): 0
B4 (TRIM8 RING domain): 0
B5 (TRIM69 RING domain): 0
B6 (MID1 RING domain): 0

Other studies, line by line
COS(=O)(=O)[O-].C[N+]1(C)CCC(=C(c2ccccc2)c2ccccc2)CC1  cell number (HEK-293T-ACE2; Hoechst nuclei count; concentration not given, counter-screen; reference: vehicle): 97.3%

For quick reference, copied from above (set 2):
ESIDDAAGE: inactive
TIIDRIGPY: active
